Experimental data collected from several papers.
Each numbered part is a random draw from the data of one study; scales do not carry over between parts. “And” joins repeats or separate records; there may be more than shown.
UniProt P00519, sequence (whole entry, unmodified, looked up): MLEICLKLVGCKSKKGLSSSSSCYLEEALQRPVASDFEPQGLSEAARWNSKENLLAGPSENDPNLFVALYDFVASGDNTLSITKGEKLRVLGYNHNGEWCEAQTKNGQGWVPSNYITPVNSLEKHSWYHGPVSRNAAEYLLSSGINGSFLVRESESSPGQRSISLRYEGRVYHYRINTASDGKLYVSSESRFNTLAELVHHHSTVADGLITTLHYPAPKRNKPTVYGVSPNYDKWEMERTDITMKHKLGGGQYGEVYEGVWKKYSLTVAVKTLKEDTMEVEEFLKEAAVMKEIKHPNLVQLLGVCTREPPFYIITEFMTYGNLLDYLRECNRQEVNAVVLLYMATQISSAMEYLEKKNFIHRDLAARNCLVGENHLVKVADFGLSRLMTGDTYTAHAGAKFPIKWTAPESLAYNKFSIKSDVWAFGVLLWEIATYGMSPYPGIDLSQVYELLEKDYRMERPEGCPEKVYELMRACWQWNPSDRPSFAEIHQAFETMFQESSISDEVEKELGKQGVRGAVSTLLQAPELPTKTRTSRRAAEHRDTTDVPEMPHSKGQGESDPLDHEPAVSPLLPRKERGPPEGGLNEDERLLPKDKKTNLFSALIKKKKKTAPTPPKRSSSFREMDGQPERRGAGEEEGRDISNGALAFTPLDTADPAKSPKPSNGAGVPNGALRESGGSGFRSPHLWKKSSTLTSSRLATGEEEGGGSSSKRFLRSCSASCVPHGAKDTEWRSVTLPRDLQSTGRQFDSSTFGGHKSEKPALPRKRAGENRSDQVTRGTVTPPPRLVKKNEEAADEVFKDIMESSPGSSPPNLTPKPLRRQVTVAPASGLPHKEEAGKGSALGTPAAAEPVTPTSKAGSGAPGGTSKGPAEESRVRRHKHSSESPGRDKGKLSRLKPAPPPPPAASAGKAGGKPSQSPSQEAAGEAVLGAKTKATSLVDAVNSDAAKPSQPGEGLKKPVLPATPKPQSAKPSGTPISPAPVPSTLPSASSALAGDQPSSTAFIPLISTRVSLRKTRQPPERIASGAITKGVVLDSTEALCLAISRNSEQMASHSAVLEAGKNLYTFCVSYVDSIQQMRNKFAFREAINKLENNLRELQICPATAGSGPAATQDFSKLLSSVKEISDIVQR
UniProt P06493, sequence (whole entry, looked up): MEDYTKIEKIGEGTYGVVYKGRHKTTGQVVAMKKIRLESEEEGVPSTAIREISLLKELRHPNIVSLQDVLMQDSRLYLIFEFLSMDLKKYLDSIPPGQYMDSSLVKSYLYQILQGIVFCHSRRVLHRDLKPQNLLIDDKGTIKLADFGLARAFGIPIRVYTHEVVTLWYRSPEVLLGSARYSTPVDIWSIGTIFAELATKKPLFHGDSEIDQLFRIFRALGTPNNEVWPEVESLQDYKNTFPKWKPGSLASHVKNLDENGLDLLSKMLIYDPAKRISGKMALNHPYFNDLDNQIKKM
UniProt Q8N4C8, sequence (whole entry, looked up): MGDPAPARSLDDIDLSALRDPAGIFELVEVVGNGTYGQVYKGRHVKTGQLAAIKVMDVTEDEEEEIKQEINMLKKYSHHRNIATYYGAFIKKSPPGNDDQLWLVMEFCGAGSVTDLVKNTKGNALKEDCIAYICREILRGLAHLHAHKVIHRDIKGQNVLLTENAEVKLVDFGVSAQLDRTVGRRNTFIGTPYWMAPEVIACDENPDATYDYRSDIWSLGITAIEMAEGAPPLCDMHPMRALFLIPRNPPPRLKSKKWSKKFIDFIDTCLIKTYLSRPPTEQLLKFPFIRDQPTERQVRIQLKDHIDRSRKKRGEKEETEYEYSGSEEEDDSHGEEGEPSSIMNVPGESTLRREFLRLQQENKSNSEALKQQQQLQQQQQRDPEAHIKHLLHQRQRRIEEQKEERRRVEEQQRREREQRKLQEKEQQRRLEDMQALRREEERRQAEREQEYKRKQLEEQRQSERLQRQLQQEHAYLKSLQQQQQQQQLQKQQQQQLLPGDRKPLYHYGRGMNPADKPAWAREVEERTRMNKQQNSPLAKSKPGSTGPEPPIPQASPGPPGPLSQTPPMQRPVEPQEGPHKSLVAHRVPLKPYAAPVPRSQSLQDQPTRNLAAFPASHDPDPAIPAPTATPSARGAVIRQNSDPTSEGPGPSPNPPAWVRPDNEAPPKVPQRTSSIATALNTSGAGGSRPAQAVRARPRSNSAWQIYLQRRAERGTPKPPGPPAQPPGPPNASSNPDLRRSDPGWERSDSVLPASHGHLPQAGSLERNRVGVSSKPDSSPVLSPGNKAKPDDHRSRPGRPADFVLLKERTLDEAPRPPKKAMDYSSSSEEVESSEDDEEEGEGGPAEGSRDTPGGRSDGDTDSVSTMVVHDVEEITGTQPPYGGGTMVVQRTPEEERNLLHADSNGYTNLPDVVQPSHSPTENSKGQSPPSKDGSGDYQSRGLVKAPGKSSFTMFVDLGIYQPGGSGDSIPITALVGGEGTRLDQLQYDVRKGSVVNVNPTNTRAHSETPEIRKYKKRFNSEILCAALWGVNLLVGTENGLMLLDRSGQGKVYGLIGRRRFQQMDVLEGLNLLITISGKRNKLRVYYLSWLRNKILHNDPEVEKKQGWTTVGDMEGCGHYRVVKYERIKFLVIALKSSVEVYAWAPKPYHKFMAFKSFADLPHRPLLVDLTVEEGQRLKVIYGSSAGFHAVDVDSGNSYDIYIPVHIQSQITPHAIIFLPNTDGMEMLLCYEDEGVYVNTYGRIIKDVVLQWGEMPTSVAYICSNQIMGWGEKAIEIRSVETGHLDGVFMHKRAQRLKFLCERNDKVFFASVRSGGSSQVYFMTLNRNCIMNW
UniProt O15530, sequence (whole entry, looked up): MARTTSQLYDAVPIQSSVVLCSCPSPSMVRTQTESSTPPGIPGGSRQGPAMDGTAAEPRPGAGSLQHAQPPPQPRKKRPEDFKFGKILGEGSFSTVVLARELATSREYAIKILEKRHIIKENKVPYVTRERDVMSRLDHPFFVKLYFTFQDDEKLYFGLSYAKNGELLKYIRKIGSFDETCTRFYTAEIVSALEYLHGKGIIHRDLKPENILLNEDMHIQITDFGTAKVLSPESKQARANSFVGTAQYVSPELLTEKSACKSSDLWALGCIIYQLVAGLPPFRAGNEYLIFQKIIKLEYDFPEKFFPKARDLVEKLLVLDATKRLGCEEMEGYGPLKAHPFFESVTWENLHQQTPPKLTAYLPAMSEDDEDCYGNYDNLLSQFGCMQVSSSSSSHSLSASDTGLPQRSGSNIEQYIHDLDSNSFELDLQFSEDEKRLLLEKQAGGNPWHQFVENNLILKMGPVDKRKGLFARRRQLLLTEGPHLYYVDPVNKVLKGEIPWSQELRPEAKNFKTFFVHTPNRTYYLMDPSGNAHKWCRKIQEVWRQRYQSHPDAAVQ
UniProt P28482, sequence (whole entry, looked up): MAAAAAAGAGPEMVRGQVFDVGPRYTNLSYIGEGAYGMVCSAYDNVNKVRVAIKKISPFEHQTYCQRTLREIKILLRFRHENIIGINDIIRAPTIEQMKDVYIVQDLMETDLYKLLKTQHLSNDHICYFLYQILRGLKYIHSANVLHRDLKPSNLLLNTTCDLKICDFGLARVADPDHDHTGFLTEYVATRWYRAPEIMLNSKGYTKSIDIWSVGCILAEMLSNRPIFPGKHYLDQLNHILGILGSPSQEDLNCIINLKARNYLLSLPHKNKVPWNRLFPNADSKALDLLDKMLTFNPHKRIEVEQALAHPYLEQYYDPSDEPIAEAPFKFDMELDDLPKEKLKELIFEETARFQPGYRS
UniProt P32298, sequence (whole entry, looked up): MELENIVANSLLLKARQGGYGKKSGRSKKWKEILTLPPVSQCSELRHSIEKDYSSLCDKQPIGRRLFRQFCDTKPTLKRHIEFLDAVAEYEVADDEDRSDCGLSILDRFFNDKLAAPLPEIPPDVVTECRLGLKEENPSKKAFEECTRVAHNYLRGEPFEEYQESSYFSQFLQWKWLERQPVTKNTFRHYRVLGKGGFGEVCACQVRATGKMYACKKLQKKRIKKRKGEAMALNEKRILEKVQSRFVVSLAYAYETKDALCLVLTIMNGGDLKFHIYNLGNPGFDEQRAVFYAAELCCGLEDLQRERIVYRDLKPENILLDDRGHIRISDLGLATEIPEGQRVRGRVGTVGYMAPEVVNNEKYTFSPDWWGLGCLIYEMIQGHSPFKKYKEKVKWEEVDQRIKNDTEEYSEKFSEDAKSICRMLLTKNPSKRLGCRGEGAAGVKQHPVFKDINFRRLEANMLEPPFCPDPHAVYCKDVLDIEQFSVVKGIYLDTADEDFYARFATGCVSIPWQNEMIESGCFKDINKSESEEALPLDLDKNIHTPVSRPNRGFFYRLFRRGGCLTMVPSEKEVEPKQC

Study 1
Compound: CCC(=O)N[C@H]1CC[C@@H](C(=O)N(C)c2ccc(-c3nc4ccccc4o3)cc2)C1
Read-out: cell-free assay
Technique: competition with immobilised ligand
Tested at: 1 µM
For 3-phosphoinositide-dependent protein kinase 1 (PDPK1, Homo sapiens, UniProt O15530): remaining binding read 90%.
For Mitogen-activated protein kinase 3 (MAPK3, Homo sapiens, UniProt P27361): remaining binding read 100%.
For Serine/threonine-protein kinase 33 (STK33, Homo sapiens, UniProt Q9BYT3): remaining binding read 100%.
The remaining binding was 72% (Tyrosine-protein kinase ABL1, phosphorylated (ABL1, Homo sapiens, UniProt P00519, F317L)).
The remaining binding was 100% (Microtubule-associated serine/threonine-protein kinase 1 (MAST1, Homo sapiens, UniProt Q9Y2H9)).

Study 2
Compound: Cc1cncc2cccc(S(=O)(=O)N3CCCN(C(=O)CN)C[C@@H]3C)c12
Read-out: enzyme activity
Action: inhibitor
Tested at: 0.5 µM
Baseline: control
It gave 101% for remaining activity (Calcium/calmodulin-dependent protein kinase type 1B (PNCK, Homo sapiens, UniProt Q6P2M8)).
The remaining activity was 3.44% (Rho-associated protein kinase 1 (ROCK1, Homo sapiens, UniProt Q13464)).
RAC-beta serine/threonine-protein kinase (AKT2, Homo sapiens, UniProt P31751) — remaining activity: 97.2%.
Dual specificity protein kinase CLK3 (CLK3, Homo sapiens, UniProt P49761) — remaining activity: 95.9%.
For Cyclin-dependent kinase 9, with cyclin K (CDK9, Homo sapiens, UniProt P50750): remaining activity read 103%.
cGMP-dependent protein kinase 2 (PRKG2, Homo sapiens, UniProt Q13237) — remaining activity: 88.1%.
It gave 89.1% for remaining activity (Serine/threonine-protein kinase MARK2 (MARK2, Homo sapiens, UniProt Q7KZI7)).
Myosin-IIIb (MYO3B, Homo sapiens, UniProt Q8WXR4) — remaining activity: 104%.
For Mitogen-activated protein kinase 1 (MAPK1, Homo sapiens, UniProt P28482): remaining activity read 103%.
It gave 97.2% for remaining activity (Misshapen-like kinase 1 (MINK1, Homo sapiens, UniProt Q8N4C8)).
The remaining activity was 94% (G protein-coupled receptor kinase 4 (GRK4, Homo sapiens, UniProt P32298)).
The remaining activity was 89.2% (Cyclin-dependent kinase 1, with cyclin A (CDK1, Homo sapiens, UniProt P06493)).
Serine/threonine-protein kinase Nek3 (NEK3, Homo sapiens, UniProt P51956) — remaining activity: 91.1%.
Mitogen-activated protein kinase 14 (MAPK14, Homo sapiens, UniProt Q16539) — remaining activity: 110%.
For Serine/threonine-protein kinase PAK 3 (PAK3, Homo sapiens, UniProt O75914): remaining activity read 105%.

Study 3
Cell line: mouse MPNST tumor cells
Technique: high-content nuclear imaging
Measured: cell number
Tested at: 10 µM
Time: 12 h
Setting: mean of 2 replicates
Baseline: plate mean
Reading: higher = more cells
`COc1cc2ncn(-c3cc(OCc4ccccc4C(F)(F)F)c(C(N)=O)s3)c2cc1OC` gave a nuclei count of -2.39 z-score.
With `O=C(NC(=O)c1c(F)cccc1Cl)NC1c2ccccc2-c2ccccc21` the nuclei count was 0.627 z-score.
With `CC1c2cccc(O)c2C(O)=C2C(=O)C3(O)C(O)=C(C(N)=O)C(=O)C(N(C)C)C3C(O)C21` (centres unmarked) the nuclei count was -0.0502 z-score.
For `S=c1nc[nH]c2nc[nH]c12`, the nuclei count was -2.27 z-score.
`COC(=O)[C@H](c1ccccc1Cl)N1CCc2sccc2C1` gave a nuclei count of 0.411 z-score and 1.94 z-score.
For `CCN1CCC[C@H]1CNC(=O)c1c(OC)ccc(Br)c1OC`, the nuclei count was 1.99 z-score.
The nuclei count of `O=C1N(c2ccccc2)c2ccccc2C1(Cc1ccncc1)Cc1ccncc1` is reported as 1.69 z-score.
`Fc1ccc(Nc2nc(-c3ccccc3)cs2)cc1` gave a nuclei count of -1.54 z-score.

Study 4
Target: Beta-1 adrenergic receptor (ADRB1, Homo sapiens, UniProt P08588)
UniProt P08588, sequence (whole entry, looked up): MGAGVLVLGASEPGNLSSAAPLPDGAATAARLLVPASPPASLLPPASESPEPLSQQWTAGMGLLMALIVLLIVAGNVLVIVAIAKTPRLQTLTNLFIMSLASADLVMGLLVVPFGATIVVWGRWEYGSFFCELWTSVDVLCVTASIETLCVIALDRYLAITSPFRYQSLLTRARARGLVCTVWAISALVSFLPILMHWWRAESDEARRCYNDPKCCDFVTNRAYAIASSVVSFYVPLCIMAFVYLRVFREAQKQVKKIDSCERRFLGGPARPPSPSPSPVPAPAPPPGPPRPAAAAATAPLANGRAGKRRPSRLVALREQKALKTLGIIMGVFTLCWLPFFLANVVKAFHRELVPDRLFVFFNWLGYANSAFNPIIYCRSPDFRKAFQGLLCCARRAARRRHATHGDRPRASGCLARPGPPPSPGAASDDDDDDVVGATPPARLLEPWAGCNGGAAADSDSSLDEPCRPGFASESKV
Action: agonist
For `Cc1nn(Cc2ccc(F)cc2)c2sc(C(=O)N(C)Cc3cnn(C)c3)cc12`, the EC50 was 28.2 µM.
With `CN(C)c1cccc(-c2ncc3c(n2)OCCN(Cc2ccc(F)cc2F)C3=O)c1` the EC50 was at least 100 µM.
The EC50 of `COc1ccc(CN2CCOc3nc(-c4cn[nH]c4)ncc3C2=O)cc1` is reported as at least 100 µM.
For `O=[S+]([O-])(N[C@H]1CO[C@H]2[C@@H]1OC[C@@H]2n1nnnc1Oc1cccc(N2CCOCC2)c1)c1cccs1`, the EC50 was at least 100 µM.
The EC50 of `c1ccc2c(CCNCc3ccc(-n4ccnc4)cc3)c[nH]c2c1` is reported as at least 100 µM.
For `O=C(CCc1ccccc1)Nc1ccc([C@@H](O)[C@H]2COCC(=O)N2Cc2ccncc2)cc1`, the EC50 was at least 100 µM.
For `COc1ccccc1N1CCN([C@H]2[C@@H]3OC[C@@H](O3)[C@@H](NCc3ccccc3O)[C@@H]2O)CC1`, the EC50 was at least 100 µM.
